Measurements collected from several papers.
± marks the error that the study gave.
Target: Acetylcholinesterase (ACHE, Homo sapiens, UniProt P22303)
Sequence of UniProt P22303 (whole entry, looked up): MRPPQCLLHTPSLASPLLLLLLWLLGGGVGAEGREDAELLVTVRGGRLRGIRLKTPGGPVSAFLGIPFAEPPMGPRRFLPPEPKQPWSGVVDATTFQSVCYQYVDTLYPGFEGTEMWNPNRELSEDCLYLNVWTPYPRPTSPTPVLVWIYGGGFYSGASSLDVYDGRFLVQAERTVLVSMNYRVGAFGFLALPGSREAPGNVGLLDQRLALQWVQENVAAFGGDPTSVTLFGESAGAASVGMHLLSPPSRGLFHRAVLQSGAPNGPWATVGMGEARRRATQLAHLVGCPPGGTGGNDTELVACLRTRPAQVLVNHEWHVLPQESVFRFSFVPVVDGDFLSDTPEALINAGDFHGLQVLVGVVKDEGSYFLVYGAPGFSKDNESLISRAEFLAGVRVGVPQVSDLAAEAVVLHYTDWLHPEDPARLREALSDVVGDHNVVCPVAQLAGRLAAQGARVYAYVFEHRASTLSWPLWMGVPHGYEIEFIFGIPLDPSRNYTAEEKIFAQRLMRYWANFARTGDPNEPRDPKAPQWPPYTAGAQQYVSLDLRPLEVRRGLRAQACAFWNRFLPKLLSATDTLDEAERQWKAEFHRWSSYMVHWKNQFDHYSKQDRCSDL

SMILES | observed | action | method | setting | IC50 [µM]
COC(=O)CC1NC(C(C)=O)=NN(c2ccc3c(C)cc(=O)oc3c2)C1=O (stereo not shown) | enzyme activity | inhibitor | Ellman | – | 135
COc1cc(C=O)ccc1OC(=O)CSc1nnc(Cn2cnc3c2c(=O)n(C)c(=O)n3C)o1 | enzyme activity | inhibitor | Ellman | – | 5.55
O=C1c2c(O)cc(O)cc2O[C@@]2(c3ccc(O)cc3)Oc3cc4oc(-c5ccc(O)c(O)c5)c(O)c(=O)c4c(O)c3[C@@]12O | enzyme activity | inhibitor | Ellman | – | > 50
COc1cc(/C=N\N=C(\C)c2ccc(OCc3ccc(Br)cc3)cc2)ccc1O | enzyme activity | inhibitor | – | – | 15.9
COc1cc2c(cc1OC)C(=O)/C(=C\c1ccc(N3CCCCC3)cc1)C2 | enzyme activity | inhibitor | Ellman | – | 26
O=S(=O)(CCc1cn(-c2cnc3ccccc3c2)nn1)N1CCc2ccccc2C1 | enzyme activity | inhibitor | – | – | 2.18
O=C1c2c(O)cc(O)cc2O[C@@]2(c3ccc(O)c(O)c3)Oc3cc(O)c4c(=O)c(O)c(-c5ccc(O)cc5)oc4c3[C@@]12O | enzyme activity | inhibitor | Ellman | – | 9.89
Cc1nc2ccc(NCc3cn(CCCOC4=CC(=O)c5ccccc5C4=O)nn3)cc2nc1C | enzyme activity | inhibitor | Ellman | – | 5.4
CC(=O)C(=NNc1ccc2c(C)cc(=O)oc2c1)N1CCCCC1 | enzyme activity | inhibitor | Ellman | – | 46.2
COC(=O)c1ccc(-n2nc(-c3ccccc3O)nc2-c2ccccc2O)cc1 | – | – | – | – | 6.24 ± 0.16
O=C(/C=C/c1ccccc1)C(F)(F)F | enzyme activity | inhibitor | Ellman | – | 0.33
O=c1c(O)c(-c2cc(O)ccc2O)oc2cc(O)cc(O)c12 | – | – | – | – | 298
Cc1nc2ccc(NCc3cn(CCCCCCCCOC4=CC(=O)c5ccccc5C4=O)nn3)cc2nc1C | enzyme activity | inhibitor | Ellman | – | 3.5
COc1cc2c(cc1OC)C(=O)/C(=C\c1ccc(Br)cc1)C2 | enzyme activity | inhibitor | Ellman | – | > 10
Cc1ccccc1C[n+]1cccc(CNC(=O)c2ccc(CN3C(=O)c4ccccc4C3=O)cc2)c1 | enzyme activity | inhibitor | Ellman | – | 2.37
O=C1c2ccccc2NC(c2cc([N+](=O)[O-])ccc2O)N1/N=C/c1cc([N+](=O)[O-])ccc1O (stereo not shown) | enzyme activity | inhibitor | Ellman | – | 14.2
O=C1c2c(O)cc(O)cc2O[C@@]2(c3ccc(O)c(O)c3)Oc3cc4oc(-c5ccc(O)cc5)c(O)c(=O)c4c(O)c3[C@@]12O | enzyme activity | inhibitor | Ellman | – | 6.25
COc1cc2c(cc1OC)C1C(O)C(OC)C(O)C3=CC[N+](CCl)(C2)C31 (stereo not shown) | enzyme activity | inhibitor | – | – | 76
COc1ccccc1N(C)C(=O)Oc1cc2oc3cc4c(c(O)c3c(=O)c2c(CC=C(C)C)c1OC)C=CC(C)(C)O4 | enzyme activity | inhibitor | – | – | > 100

SMILES | observed | action | method | setting | IC50 [µM]
O=c1[nH]c2c(O)cccc2c2cc3c(c(O)c12)OCO3 | enzyme activity | inhibitor | – | no inhibition observed | 107 ± 2.45
COc1ccc(N(C)C(=O)Oc2cc3oc4cc5c(c(O)c4c(=O)c3c(CC=C(C)C)c2OC)C=CC(C)(C)O5)cc1 | enzyme activity | inhibitor | – | – | > 100
CC(=O)C(=NNc1ccc2c(C)cc(=O)oc2c1)N1CCSCC1 | enzyme activity | inhibitor | Ellman | – | 81.5
CNCCc1ccc(O)cc1 | enzyme activity | inhibitor | – | – | 464
O=C1C=C(OCCCCCCCCn2cc(CNc3ccc4nccnc4c3)nn2)C(=O)c2ccccc21 | enzyme activity | inhibitor | Ellman | – | 0.022
COc1cc2c(cc1OC)C(=O)/C(=C\c1ccccc1)C2 | enzyme activity | inhibitor | Ellman | – | > 10
O=C(NCc1ccc[n+](Cc2ccc(Cl)cc2)c1)c1ccc(CN2C(=O)c3ccccc3C2=O)cc1 | enzyme activity | inhibitor | Ellman | – | 0.48
O=C1c2c(O)cc(O)cc2O[C@H](c2ccc(O)c(O)c2)[C@H]1O | enzyme activity | inhibitor | Ellman | – | 43.9
COc1c(OC(=O)N(C)c2ccccc2Br)cc2oc3cc4c(c(O)c3c(=O)c2c1CC=C(C)C)C=CC(C)(C)O4 | enzyme activity | inhibitor | – | – | 19.2
Cc1cc(C)cc(-n2cc(CCS(=O)(=O)N3CCc4ccccc4C3)nn2)c1 | enzyme activity | inhibitor | – | – | 2.32
COc1cc2c(cc1OC)C(=O)/C(=C\c1ccc(-n3cccn3)cc1)C2 | enzyme activity | inhibitor | Ellman | – | 55
CC(=O)C(=NNc1ccc2c(C)cc(=O)oc2c1)N1CCN(CCO)CC1 | enzyme activity | inhibitor | Ellman | – | 116
CN1c2ccc(OC(=O)Nc3ccncc3)cc2C2(C)CCOC12 (stereo not shown) | enzyme activity | inhibitor | fluorescence | – | 7
COc1c(OC(=O)N(C)c2ccc(C)cc2)cc2oc3cc4c(c(O)c3c(=O)c2c1CC=C(C)C)C=CC(C)(C)O4 | enzyme activity | inhibitor | – | – | > 100
O=C1c2c(O)cc(O)cc2O[C@]2(c3ccc(O)cc3)Oc3cc(O)c4c(=O)c(O)c(-c5ccc(O)c(O)c5)oc4c3[C@]12O | enzyme activity | inhibitor | Ellman | – | > 50
O=C(O)/C=C/c1ccc(O)cc1 | – | inhibitor | – | – | 487
O=C1c2c(O)cc(O)cc2O[C@]2(c3ccc(O)c(O)c3)Oc3cc(O)c4c(=O)c(O)c(-c5ccc(O)c(O)c5)oc4c3[C@]12O | enzyme activity | inhibitor | Ellman | – | > 50
COc1ccc(/C=C2/SC(Nc3nc(-c4ccc(C)cc4)cs3)=NC2=O)cc1OC | enzyme activity | inhibitor | Ellman | – | 0.103

Repeated from above:
SMILES | observed | action | method | setting | IC50 [µM]
O=C1c2c(O)cc(O)cc2O[C@@]2(c3ccc(O)cc3)Oc3cc4oc(-c5ccc(O)c(O)c5)c(O)c(=O)c4c(O)c3[C@@]12O | enzyme activity | inhibitor | Ellman | – | > 50
COc1cc(/C=N\N=C(\C)c2ccc(OCc3ccc(Br)cc3)cc2)ccc1O | enzyme activity | inhibitor | – | – | 15.9
